# Published values from different studies.
# Every numbered part comes from another study and shows a few of its results, in no order. Substitutions count along the parent as printed.

# Set 1
# Target: Interferon regulatory factor 5, full length, phosphomimetic (IRF5, Homo sapiens, UniProt Q13568-2, residues 1-514, K96S/S451D/S453D/S456D/S462D)
# Technique: protein-binding microarray
# Form: double-stranded DNA, one strand shown
# Sample: in vitro
# Concentration: 250 nM
# Setting: 60-bp whole probe
# Added: salmon DNA 0.4 mg/ml
# Reference: random background probes
# Direction: higher = stronger binding
# Constant ends, left off below: GCCTAGCAC … GTCTTGATTCGCTTGACGCTGCTG
Sequence,log fluorescence [z-score]
TCAGATATCAGTATCGATTAGTGCTAG,8.02
TTAGGTATCGACTTTGGGTTAGTGCTA,2.53
GACGATCTCAGTATCAAGACGTGCTAG,0.158
GACGGTATCCATTTCCTGACGTGCTAG,0.292
TTAGGTCTCCTTTTACTTTAGTGCTAG,0.2
TCATTTTTGTAATCGAAAACTGTGCTA,2.3
GACGGCATCGACACTGGGGACGTGCTA,-0.329
GACAGTATCCTTCTCCTGACGTGCTAG,0.426
TTAGGACTGCTTCTCCTTTAGTGCTAG,0.101
TTAGAACTGGGGGCTGGATTAGTGCTA,0.706
TTAGGTATCGGTATCGTTTAGTGCTAG,8.2
TCATATATATATTATATAACTGTGCTA,0.746
TTAAGTCTCGGACTGGGTTAGTGCTAG,0.0698
TCACCTTGGCCTCTAGGACTGTGCTAG,-0.798
GACGGACTGGACTTTCTGGACGTGCTA,0.13
GACGGACTGGACTATCTGGACGTGCTA,-0.203
TTAGATTTCAGTCTCGTTTAGTGCTAG,2.48

# Set 2
# Target: CCND1, cyclin fold, Cln2 fusion (human)
# Technique: yeast growth competition, sequencing
# Sample: yeast
# Setting: strong parent motif
# Reference: not given
# Direction: higher = stronger binding
# Starting sequence: PKN2 docking peptide (human); VSAVQKLDFSDTM
Substitution,normalised enrichment score
VSAVQKNDFSDTM [L7N],0.0422
VSAVQKLDFSDRM [T12R],1.7
VNAVQKLDFSDTM [S2N],1.76
VSAVQKLDFSHTM [D11H],1.49
VSAVQKLPFSDTM [D8P],0.715
ISAVQKLDFSDTM [V1I],1.95
VSAVQKLDFSCTM [D11C],2.03
VSAVQKKDFSDTM [L7K],-0.31
VSAVQFLDFSDTM [K6F],1.51
VSAVQKLDFSDAM [T12A],1.98
VIAVQKLDFSDTM [S2I],1.56
VSAVQKLHFSDTM [D8H],0.199
VSAVQSLDFSDTM [K6S],1.42
VSAVRKLDFSDTM [Q5R],5.21
VSAVQKLDFSDTD [M13D],2.2

# Set 3
# Target: RING finger protein unkempt homolog, zinc fingers 1-6, GST-SBP tag (UNK, Homo sapiens, UniProt Q9C0B0, residues 30-357)
# UniProt Q9C0B0, sequence (30-357, looked up): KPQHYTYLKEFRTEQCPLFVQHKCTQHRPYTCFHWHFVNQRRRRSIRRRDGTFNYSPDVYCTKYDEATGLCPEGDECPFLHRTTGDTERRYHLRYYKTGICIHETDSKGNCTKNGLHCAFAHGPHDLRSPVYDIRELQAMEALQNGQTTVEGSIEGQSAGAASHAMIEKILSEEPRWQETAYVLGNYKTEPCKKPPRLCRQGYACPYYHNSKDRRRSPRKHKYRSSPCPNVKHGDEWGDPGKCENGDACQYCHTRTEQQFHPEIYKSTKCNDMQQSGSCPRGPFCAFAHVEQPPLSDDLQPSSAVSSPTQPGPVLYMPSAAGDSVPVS
# Technique: RNA Bind-n-Seq
# Form: RNA
# Sample: in vitro
# Concentration: not given
# Setting: RNA with constant flanks, human and mouse sites, ends assumed
# Reference: input RNA pool
# Direction: higher = stronger binding
Sequence,bound/input enrichment [ratio]
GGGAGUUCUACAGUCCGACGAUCAGAUAGACAACUGUCCGCAGUUGCUUUUAAAAAAGGUCACUAUAAUAAGUACUAUAUAGUACAGUAUUAAUUUAUAGCAGGAAAUCGUAUCUUGUAAACUGUAUAUAAAACACUGUUUUACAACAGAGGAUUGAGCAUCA,0.521
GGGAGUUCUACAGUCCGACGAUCGCCUUCUUCAGCACCCGCCUGAUCGAGGCCGGCGAGCAGCUCGGGUUUGACUAUGGAGAGCGCUUCUGGGACAUCAAAGGCAAGCUCUUCAGCUGCCGCUGCGGCUCCCCCAAGUGCCGGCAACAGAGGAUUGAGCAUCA,0.116
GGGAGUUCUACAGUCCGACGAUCAGCAGGAAGAAUGUGCUUGGUCACAUGCAGCAGGGUGGGAGCCCAACCCCAUUUGAUAGGAAUUUUGCCACUAAGAUGGGCGCCAAGGCUAUGAACUGGAUGUCUGGGAAAAUCAAAGAGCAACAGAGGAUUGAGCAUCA,0.296
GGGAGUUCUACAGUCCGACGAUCCUCCCCUCUUGUUGUGUUUCUUUCAGGGAUACCAUUAAUUUAAUUGUAUGAUUUGUCUGCACUCAGUUUCUCCCCUUCUCAAAUCUCAGCCCCGCGUUGUUCUUUGUUACUGUCAGAAAACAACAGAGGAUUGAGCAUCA,0.905
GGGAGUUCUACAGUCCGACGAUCGCAUGGCUGACCAACUGACUGAAGAGCAGAUUGCAGAGUUCAAAGAAGCUUUCUCACUAUUUGACAAGGACGGGGAUGGGACAAUAACAACAAAGGAGCUGGGGACAGUGAUGAGGUCCCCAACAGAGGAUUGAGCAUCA,0.425
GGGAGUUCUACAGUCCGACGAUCCGUUUCUAUAAGAAUUGGCAUAAAUCUAAGAAGAAGGCCUUUACCAAGUACUGCAAGAAAUGGCAGGAUGAGGAUGGCAAGAAGCAGCUGGAGAAGGACUUCAGCAGCAUGAAGAAGUACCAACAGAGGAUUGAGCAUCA,0.166
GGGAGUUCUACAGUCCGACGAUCAGAGGAGAUCAGGUGCAUGGUGGAACAGCUGAGCCACACUGAAAAUACCCUGCAGGCUGAGCGUAGCCGGGUUCUCAGCCAGCUAGACGCCUCAGUCAAAGACAGGCAGGCCAUGGAACACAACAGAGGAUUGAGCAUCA,0.147
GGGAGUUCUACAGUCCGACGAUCAACAUGCUAGCCACUGCCAAUAAAACAGAAAAGACUGAAUUUCUGGGUUUCUUCUACAAGCACUGUAUGCAUGUUCUCACUGCUCCUUUACUAGCAAAUACAACAGAAGACAAACCUAGUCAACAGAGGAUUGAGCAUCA,3.84
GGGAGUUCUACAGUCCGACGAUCUGCCACCGCCGCUGCUGCCGCCGCCGCCGCCGCCGCCGCCGCUGCGACCUCCGCGUUCGGUAGUAGAAUUUGGAAUCCCUGCACCGGGCUAACAAUGAAGCAGAGUUCCAACGUGCCGGCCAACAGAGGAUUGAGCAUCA,0.279
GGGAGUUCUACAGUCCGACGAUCAGCGCAUACCUGUUCCUCUUCUCAUUCUCUCCCCGCCGCCUGUUUCCUCACCUUCUCUCCCCUUUCCAUGCCGUCCAUGAUCCCCACCCCAUGUGUUUUAAAAAGGCAGUAGCCUUUGCACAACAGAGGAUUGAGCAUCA,1.09
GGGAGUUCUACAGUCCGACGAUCAAUAUCAGUGUUGGACGUUAAUGCCCACUUUUCUUAUUCUUACUCAGCCCCUUUUCCUCCCUUAGGAGCAUUGGUCCUCUGUUGUCCAUUUUUAUCACCAGAUGUUUUCCACUGAAGCAUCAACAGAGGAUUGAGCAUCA,2.52

# Set 4
# Target: RNA binding protein fox-1 homolog 2, RRM domain, GST-SBP tag (RBFOX2, Homo sapiens, UniProt O43251-10, residues 100-194)
# Technique: RNA Bind-n-Seq
# Form: RNA
# Sample: in vitro
# Concentration: 365 nM
# Setting: natural RNA segment, single round, ends assumed
# Reference: no-protein control
# Direction: higher = stronger binding
# Residues (chain): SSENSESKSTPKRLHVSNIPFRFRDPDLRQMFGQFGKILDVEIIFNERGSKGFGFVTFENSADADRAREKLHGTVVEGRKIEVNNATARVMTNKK
Sequence,RBNS enrichment (R)
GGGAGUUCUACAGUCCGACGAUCUUGGGAAACAUGGGCAUAAUCAGGUAGUUUUGCUAAAAUUCCUCUUCCUUGGUCUACAUAAAGAAGACAUGGGUCUGUCAUAGAAUGGGGACAUUAGACUGAAAACUGGGUGGAAUUCUCGGGUGCCAA,2.47
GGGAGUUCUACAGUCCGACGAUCCCGGCUGCCUACCAGGGGCCUUCCUGUGUGGCCUGCCUUCACCCCACUCAGCUCACCUCUCCCUCCACCUCCUCUCCACCUGCUGGUGAGAGGUGCAAAGAGGCAGAUCUUGGAAUUCUCGGGUGCCAA,0.273
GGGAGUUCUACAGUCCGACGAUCAGCAGCUCUCUGCAGAACAAAAACUAAUUCAAUGAAGCAGCUGUCCCUCCCAGUGUUUGCAGAGCUGAGAUUUUCCUAAUGACCUAAGAAGAUACUGACGUAGAACGGUAUGGAAUUCUCGGGUGCCAA,1.05
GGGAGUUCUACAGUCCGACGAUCUGUAAGAGCACCAAUAGGUCCUAGUCUAGCUGAGGUCCAGAUCUAUGCCAUGCUGGGGUGACAUUUUAGAGACUGACCGAAAUAGGUGAGACCCUGCCUGUAUUCAGAAAUGGAAUUCUCGGGUGCCAA,0.644
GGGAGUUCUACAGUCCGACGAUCGUUGAUGCAUUUUUGUACUUAGCUGUACUGUGUGAUAUUUUUCAUUAUUUUAGGAUGCCAACAUGAGACCUGUAAUAAAAUAUGUAAUGGGGUUGAAGGCUGGGGAGGAGUGGAAUUCUCGGGUGCCAA,1.12
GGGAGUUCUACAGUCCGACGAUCCUUAAAGCAACAACAAAACCUGUUCAUCUGGAUCCCUAGGUAAUUUUGACCAAGGUGAGACUUUUGGCAUAAAUUAAAUGGAUUGUGGUCAGCAUUACAUUUGAGAGAAUUGGAAUUCUCGGGUGCCAA,0.632
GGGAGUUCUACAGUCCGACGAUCUGAACAGACCCCCCGACCCUCCCCCACAAGCCUUUAAUUGAGAGCCGCUCUCUGUAAGUGUUUGCUUGUGCAAAAGGGAAUAGUGCCGUGGAGGUGUGUGUGUCCAUGGCUGGAAUUCUCGGGUGCCAA,1.85
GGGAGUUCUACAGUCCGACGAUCGCUUCAAACUGUUUUAAUCAUCAAACCAAGUCACUGUUCAUUUUCAUCUUCUUGUACAGUUUUUGUUUGGGUAAUGAUCACAGCAAUCCUUACACAUUUUAUGUAAACUCUGGAAUUCUCGGGUGCCAA,0.349
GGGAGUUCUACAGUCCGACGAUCCGGGCGUGGUGGCUCAUGCCUAUAAUCCCAGCACUUUGGGAGGCCAAGCGGGGGCGGAUCACGAGGUCAGGAGAUUGAGACCAUCCUGGCUAACACGGUGAAACCCCAUCUGGAAUUCUCGGGUGCCAA,0.324
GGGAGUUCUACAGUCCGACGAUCCAUCCCGUCUGCCUGCCAUGGGACGGCUCCUCUGAGUGUUCCCUGGCCCCACGUGUGUGGUGUUUGUGUGUCUGUGCCUGGCCAAGGGAGGUGCCAACACUGGGCUUGCCUGGAAUUCUCGGGUGCCAA,1.03
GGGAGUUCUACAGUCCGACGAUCGCAACUGGCAAGCAUCGGGUCUGAGGGACUACACAGGGCGCAGCACAAGGCGCUCAUGGGUUUCAGGGAGUGGGAGGGACUGUUUUUCUCCGUUGCUCUUCCUCCUUGUUUGGAAUUCUCGGGUGCCAA,0.654
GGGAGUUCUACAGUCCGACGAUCAUGUGCUGCCCAACAACUAAAUUUGUAAUUUGUUUUUCUCUAGUUUGAGCAGGGUCUGAAUUUUUUCAUUUAUUUCCUUUUUUGCCAGCAGACAGACUUGAGUCUGUAAAUGGAAUUCUCGGGUGCCAA,1.06

# Mixed results
Substance,target,assay,test system,setting,how to read,endpoint,value
"PhoQ, residues 284 288 289 292 302 303 SMMNNA","PhoP, residues 12 14 15 18 19 NFCKL (Escherichia coli, UniProt P23836)","Sort-seq, measured: YFP reporter",E. coli,"PhoQ-PhoP variant library, added: 10 µM Mg2+","reference: high Mg2+ state, higher = stronger signaling",fold induction,3.22

# Excerpt of the above (set 4):
Sequence,RBNS enrichment (R)
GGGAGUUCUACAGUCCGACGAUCCCGGCUGCCUACCAGGGGCCUUCCUGUGUGGCCUGCCUUCACCCCACUCAGCUCACCUCUCCCUCCACCUCCUCUCCACCUGCUGGUGAGAGGUGCAAAGAGGCAGAUCUUGGAAUUCUCGGGUGCCAA,0.273
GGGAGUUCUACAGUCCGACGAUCGCUUCAAACUGUUUUAAUCAUCAAACCAAGUCACUGUUCAUUUUCAUCUUCUUGUACAGUUUUUGUUUGGGUAAUGAUCACAGCAAUCCUUACACAUUUUAUGUAAACUCUGGAAUUCUCGGGUGCCAA,0.349
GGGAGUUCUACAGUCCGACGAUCAUGUGCUGCCCAACAACUAAAUUUGUAAUUUGUUUUUCUCUAGUUUGAGCAGGGUCUGAAUUUUUUCAUUUAUUUCCUUUUUUGCCAGCAGACAGACUUGAGUCUGUAAAUGGAAUUCUCGGGUGCCAA,1.06
